Measured values pooled from the literature.
Protocols differ between the studies behind these lines.
Organism: Trypanosoma brucei

The EC50 of `CN(Cc1nc2ccccc2c(=O)[nH]1)C(=O)Cc1csc(-c2ccc(F)cc2)n1` is reported as over 25000 nM (cell viability, flow cytometry, PI; bloodstream form; 24 h).
For `Clc1ccc(CNCCCNc2nc3ccccc3[nH]2)cc1`, the EC50 was 960 nM (parasite growth).
The EC50 of `C[C@@H](Nc1c(-c2c(F)cc(OCCCO)cc2F)c(Cl)nc2ncnn12)C(C)(C)C` is reported as 83.1 nM (parasite growth, SYBR Green; 72 h).
`COc1ccc(Nc2nc(N)c(C(=O)c3ccc(OC)cc3)s2)cc1` gave an EC50 of 700 nM (cell proliferation, resazurin; bloodstream form; 73 h).
`Cc1oc2nc[nH]c(=O)c2c1C(=O)N(C)CC12CC3CC(CC(C3)C1)C2` has an EC50 of over 25000 nM (cell viability, flow cytometry, PI; bloodstream form; 24 h).
`CC(C)[C@H](C)Nc1c(-c2c(F)cc(OCCCN(C)C)cc2F)c(Cl)nc2ncnn12` gave an EC50 of 159 nM (parasite growth, SYBR Green; 72 h).
`CS[Se][C@@H]1O[C@H](COC(C)=O)[C@@H](OC(C)=O)[C@H](OC(C)=O)[C@H]1NC(C)=O` gave an EC50 of 370 nM (parasite growth; 24 h).
For `C[C@@H](Nc1c(-c2c(F)cc(C#CCCO)cc2F)c(Cl)nc2ncnn12)C(C)(C)C`, the EC50 was 158 nM (parasite growth, SYBR Green; 72 h).
The EC50 of `COC(=O)c1[nH]c(C(=O)OC)c2c1-c1c[nH]c3ccc(Cl)c(c13)C21CN(C)c2ccc(Cl)cc21` (racemic) is reported as 3200 nM (parasite growth, ATP luminescence; 48 h).
For `COc1ccc(C(C)=O)cc1CC(=O)N1CCC(C(=O)Nc2ccc(Br)cn2)CC1`, the EC50 was over 25000 nM (cell viability, flow cytometry, PI; bloodstream form; 24 h).
The EC50 of `Cc1ccc2c(c1Br)C(O)(CC(=O)c1ccc3c(c1)OCO3)C(=O)N2` (centres unmarked) is reported as 30000 nM (parasite growth, resazurin).
With `Clc1cccc(CNCCCNc2nc3ccccc3[nH]2)c1` the EC50 was 150 nM (parasite growth).
For `CC(=O)OC[C@H]1O[C@@H]([Se][Se][C@@H]2O[C@H](COC(C)=O)[C@@H](OC(C)=O)[C@H](OC(C)=O)[C@H]2OC(C)=O)[C@H](OC(C)=O)[C@@H](OC(C)=O)[C@@H]1OC(C)=O`, the EC50 was 540 nM (parasite growth, flow cytometry; 24 h, blood stage).
`CNc1nc(N)c(C(=O)c2ccc(F)cc2)s1` gave an EC50 of 7000 nM (cell proliferation, resazurin; bloodstream form; 73 h).
`COC(=O)c1[nH]c(C(=O)OC)c2c1-c1c[nH]c3ccc(Cl)c(c13)C21C=Nc2ccc(Cl)cc21` (racemic) gave an EC50 of 7500 nM (parasite growth, ATP luminescence; 48 h).
With `CN(C)CCCOc1cc(F)c(-c2c(Cl)nc3ncnn3c2NCC2CCC2)c(F)c1` the EC50 was 51.3 nM (parasite growth, SYBR Green; 72 h).
`Cc1ccc(-c2cc(C(=O)Nc3cccnc3)c3cc(Br)ccc3n2)o1` gave an EC50 of 6900 nM (parasite growth, resazurin; 73 h).
For `CC(=O)OC[C@H]1O[C@@H]([Se][C@@H]2O[C@H](COC(C)=O)[C@@H](OC(C)=O)[C@H](OC(C)=O)[C@H]2OC(C)=O)[C@H](OC(C)=O)[C@@H](OC(C)=O)[C@@H]1OC(C)=O`, the EC50 was 3600 nM (parasite growth; 24 h).
The EC50 of `CN(C)CCCOc1cc(F)c(-c2c(Cl)nc3ncnn3c2NCC2(C)CC2)c(F)c1` is reported as 57.6 nM (parasite growth, SYBR Green; 72 h).
With `COC(=O)c1[nH]c(C(=O)OC)c2c1-c1c[nH]c3ccc(Cl)c(c13)C21CNc2ccc(Cl)cc21` (racemic) the EC50 was 12000 nM (parasite growth, ATP luminescence; 48 h).
`CC(=O)OC[C@H]1O[C@@H]([Se]SC[C@H]2O[C@@H]3OC(C)(C)O[C@@H]3[C@H]3OC(C)(C)O[C@H]32)[C@H](OC(C)=O)[C@@H](OC(C)=O)[C@@H]1OC(C)=O` gave an EC50 of 350 nM (parasite growth; 24 h).
`C[C@H](Nc1c(-c2c(F)cc(OCCCN(C)C)cc2F)c(Cl)nc2ncnn12)C1CC1` has an EC50 of 101 nM (parasite growth, SYBR Green; 72 h).
The EC50 of `CC1CCN(Cc2ccc(CNC(=O)Cc3cc(Cl)c4c(c3)OCCO4)cc2)CC1` is reported as over 25000 nM (cell viability, flow cytometry, PI; bloodstream form; 24 h).
With `C[C@H](Nc1c(-c2c(F)cc(OCCCN(C)C)cc2F)c(Cl)nc2ncnn12)C(C)(C)C` the EC50 was 57.5 nM (parasite growth, SYBR Green; 72 h).
`Nc1nc(Nc2ccccc2)sc1C(=O)c1ccccc1` gave an EC50 of 200 nM (cell proliferation, resazurin; bloodstream form; 73 h).
The EC50 of `CC(=O)OC[C@H]1O[C@@H]([Se]c2ccc([N+](=O)[O-])cc2[N+](=O)[O-])[C@H](OC(C)=O)[C@@H](OC(C)=O)[C@@H]1OC(C)=O` is reported as 390 nM (parasite growth; 24 h).
The EC50 of `CC(C)[C@H](Nc1c(-c2c(F)cc(OCCCN(C)C)cc2F)c(Cl)nc2ncnn12)C(F)(F)F` is reported as 67.9 nM (parasite growth, SYBR Green; 72 h).
`CC(=O)N[C@@H]1[C@@H](OC(C)=O)[C@H](OC(C)=O)[C@@H](COC(C)=O)O[C@H]1[Se]Sc1ccccc1` gave an EC50 of 4740 nM (parasite growth; 24 h).
`Cc1ccc(-c2cc(C(=O)NCc3ccc(S(N)(=O)=O)cc3)c3cc(Br)ccc3n2)o1` has an EC50 of 14500 nM (parasite growth, resazurin; 73 h).
